Measured values gathered from unrelated publications.
Compare with care: the assays were run in different laboratories. “And” joins repeats or separate records; there may be more than shown. ± marks the error that the study gave.

O=C(Nc1ccccc1)C1CCN(C(=O)Oc2cccnc2)CC1  subjects with Tachycardia adverse event (adverse event reporting; healthy women; oral, 100 mg, 9 days): 0%
N=C(N)NCCC[C@@H](NC(=O)[C@@H](N)Cc1ccccc1)C(=O)N[C@@H](Cc1ccccc1)C(=O)N[C@@H](CCCCN)C(N)=O  median fraction excreted in urine (LC-MS; human; 5 mg, 23.83 h): 1.83%
COc1ncnn2ccc(-c3cnc4nc(C)n(Cc5nnc([C@@H](C)F)o5)c4c3)c12  incidence of grade ≥3 decreased WBC (human patients; oral, dose not given): 14.3%
COc1cccc(Oc2ccccc2NC(=O)CNC(=O)c2cccc3ccccc23)c1  mean corpuscular hemoglobin concentration (esterase-deficient SCID mice, male, blood; oral, 100 mg/kg/day, 14 days, toxicity study): 32.6 g/dL and 31.2 g/dL and 34.1 g/dL
O=C(c1ccc(F)c(F)c1Nc1ccc(I)cc1F)N1CC(O)([C@@H]2CCCCN2)C1  treatment-related adverse events (human patients; oral, dose not given, dose escalation, suspension): 89%
COc1cc2c(Oc3ccc4[nH]c(C)cc4c3F)ccnc2cc1OCC1(N)CC1  grade 3 Epistaxis (paediatric recurrent refractory sarcoma; 8 mg/kg): 0%
N#C/N=C1\SCCN1Cc1ccc(Cl)nc1  recovery (soil; 56 days, nominal 10): 0.5%
CCN1[C@@H](C(=O)NC23CCC(C(=O)O)(CC2)CC3)[C@H](c2cccc(Cl)c2F)[C@]2(C(=O)Nc3cc(Cl)ccc32)C12CCCCC2  grade ≥3 febrile neutropenia incidence (patients with advanced solid tumours; oral, 150 mg): 12.5%
Cn1cncc1-c1c(F)cncc1NC(=O)c1c(N)nn2cc(F)cnc12  patients with platelet decrease DLT (human patients; oral, 220 mg once daily, 21 days, 2 weeks on 1 week off): 0%
NC(=O)N1c2ccccc2C=Cc2ccccc21  participants with adverse events (human; oral, dose not given, 4 days, tapering dose): 50%
C[C@]1(O)C[C@@](N)(c2ccc(-c3nc4n(c3-c3ccccc3)COc3ccncc3-4)cc2)C1  patients with grade ≥3 Anemia TEAE (human, advanced or metastatic solid tumours; dose not given, all patients): 5.9%
C[C@]1(CO)Cc2ncn(-c3ccc(C#N)c(Cl)c3)c2C(=O)O1  Tmax (healthy Japanese adults, plasma; 40 mg once daily, after first dose, multiple dose): 1 h
COc1cc(C2C3=C(COC3=O)N(CCO)c3cc4c(cc32)CCC4)cc(OC)c1OC (stereo not shown)  body weight (female C57BL/6 mice; intraperitoneal, 100 mg/kg, 48 h, single dose, mean): 22 g
CC(C)n1c(C2CCNCC2)nc2c([N+](=O)[O-])c(Br)c(Br)cc21  adverse events causing discontinuation (item: Asthenia; AML patients; 125 mg): 2%
CCc1ccc(CC/C=C/c2ccc3c(c2)C(=O)CC3)cc1  Fibrinogen (Sprague-Dawley rat, female; oral, 30 mg/kg/day, 14 days): 2.63 g/L
COc1ccc(N=Nc2ccc3[nH]cc(CCNCc4cccc(OC)c4)c3c2)cc1  trans isomer fraction (HPLC; DMSO:PBS 1:1; pH 7.4, after 530 nm irradiation): 93%
C=CCNc1c(O)cc2c(O)c1C[C@@H](C)C[C@H](OC)[C@H](O)[C@@H](C)/C=C(\C)[C@H](OC(N)=O)[C@@H](OC)/C=C\C=C(/C)C(=O)N2  patients with nausea TEAE (unresectable or metastatic STS, GIST, other; intravenous, 150 mg/m^2): 67%
C[C@H]1CN(C(=O)CC#N)[C@]12CCN(c1ncnc3[nH]ccc13)C2  Cmax at NOAEL (dog, female; oral, 3 mg/kg repeated, 3 months): 2230 ng/mL
CN1CC[C@@H](c2c(O)cc(O)c3c(=O)cc(-c4ccc(C(F)(F)F)cc4Cl)oc23)[C@@H]1CO  patients with adverse event (item: Hypertension; B-cell malignancies; oral, 150 mg, intermittent dosing): 33.3%
COc1ccc([C@@H]2CC(=O)c3c(O)cc(O)cc3O2)cc1O  faecal excreted amount (male Sprague-Dawley rat, obese; oral, 100 mg/kg of neohesperidin, 12 to 24 h): 14500 ± 4630 ng
CO[C@H]1C[C@@H]2CC[C@@H](C)[C@@](O)(O2)C(=O)C(=O)N2CCCC[C@H]2C(=O)O[C@H]([C@H](C)C[C@@H]2CC[C@@H](OC(=O)NCCOCCOCCOCCOCCOCCOCCOCCOCCC(=O)N3CCc4cc(Cn5nc(-c6ccc7oc(N)nc7c6)c6c(N)ncnc65)ccc4C3)[C@H](OC)C2)C[C@@H](O)[C@H](C)/C=C(\C)[C@@H](O)[C@@H](OC)C(=O)[C@H](C)C[C@H](C)/C=C/C=C/C=C/1C  TRAE incidence (phase 1 dose escalation, item: vomiting; advanced solid tumour patients; intravenous, 12 mg weekly, grade ≥3): 8.3%
CC(C)[C@@H]1NC(=O)CNC(=O)[C@H](CC(N)=O)NC(=O)[C@H](CCCNC(=N)N)NC(=O)[C@H](Cc2ccc(O)cc2)NC(=O)[C@H](C(C)C)NC(=O)[C@@H](NC(=O)[C@@H](NC(=O)[C@H](CC(N)=O)NC(=O)[C@H](Cc2c[nH]c3ccccc23)NC(=O)[C@H](C)NC(=O)[C@H](Cc2ccccc2)NC(=O)CN)C(C)C)CSSC[C@@H](C(=O)N[C@@H](Cc2cnc[nH]2)C(=O)N[C@@H](CCCNC(=N)N)C(=O)N[C@@H](CCCNC(=N)N)C(=O)N[C@@H](C)C(=O)N[C@@H](CC(N)=O)C(N)=O)NC(=O)[C@H](C(C)C)NC(=O)[C@H](CCCNC(=N)N)NC1=O  eosinophils (ICR mouse, blood; intramammary, 5 mg/kg, day 5, 3 d dosing): 2.11 ± 0.16%
C[C@@H](NC(=O)N1C(=O)[C@H](Cc2ccnc(N)c2)[C@H]1C(=O)O)C1CCCCC1  related decreased WBC (healthy Chinese adults; continuous intravenous infusion, 1.5 mg/kg/h, 5.0 days): 0%
NC(=O)[C@H]1CCN(c2ncnc(N)c2F)C[C@@H]1N1CCC[C@@H](Nc2cc(Cl)cc(C(F)(F)F)c2)C1=O  grade ≥3 hyponatraemia (B-cell malignancy patients; oral, 82 mg twice daily, dose): 14%
CC1(C)C(/C=C(\Cl)C(F)(F)F)C1C(=O)OC(C#N)c1cccc(Oc2ccccc2)c1 (stereo not shown)  enzyme contribution to clearance (item: CYP3A5; human, age 6 months): 0.05%
CC(C)C[C@H](NC(=O)[C@H](CCCCN)NC(=O)OCC1c2ccccc2-c2ccccc21)C(=O)N[C@H](C(=O)N[C@@H](Cc1ccccc1)C(=O)N[C@@H](Cc1ccccc1)C(=O)N[C@@H](CCCCN)C(=O)NCC(=O)N[C@@H](Cc1ccccc1)C(=O)N[C@@H](C)C(=O)N[C@@H](Cc1c[nH]c2ccccc12)C(=O)N[C@@H](CC(N)=O)C(=O)N[C@H](C(=O)N[C@H]1CSSC[C@@H](C(=O)N[C@@H](Cc2c[nH]cn2)C(=O)N[C@@H](CCCNC(=N)N)C(=O)N[C@@H](CCCNC(=N)N)C(=O)N[C@@H](C)C(=O)N[C@@H](CC(N)=O)C(N)=O)NC(=O)[C@H](C(C)C)NC(=O)[C@H](CCCNC(=N)N)NC(=O)[C@H](C(C)C)NC(=O)CNC(=O)[C@H](CC(N)=O)NC(=O)[C@H](CCCNC(=N)N)NC(=O)[C@H](Cc2ccc(O)cc2)NC(=O)[C@H](C(C)C)NC1=O)C(C)C)C(C)C  peptide remaining (HPLC; trypsin buffer; 2.00 h, 37 °C, with: trypsin 1 % w/v): 53.7% and 52.1% and 59.3%
O=C(Oc1ccc(Cl)cc1)[c-]1cccc1.[Fe+2].c1cc[cH-]c1  reduction potential (cyclic voltammetry; methanol/DMEM 1:1 with TBAPF6; concentration not given, Pt disk electrode, Ag/AgCl reference, with: scan rate 100 mV/s): 476 mV
CC(=O)c1c(C)c2cnc(Nc3ccc(C4CCN(CCS(C)(=O)=O)CC4)cn3)nc2n(C2CCCC2)c1=O  MRT (human, plasma; oral, 150 mg, day 1 single dose): 11.1 h
NCCCC[C@@H]1NC(=O)[C@@H](Cc2c[nH]c3ccccc23)NC(=O)[C@H](c2ccccc2)NC(=O)[C@@H]2C[C@@H](OC(=O)NCCN)CN2C(=O)[C@H](Cc2ccccc2)NC(=O)[C@H](Cc2ccc(OCc3ccccc3)cc2)NC1=O  subjects with adverse event Vomiting (healthy human volunteers; 1950 µg twice daily): 39%
Cc1nonc1Cn1nnc2c(N3CC[C@H](O)C3)nc(C(C)(C)C)nc21  half-life (C57BL/6 mice; intravenous, 0.5 mg/kg): 2.59 h
CC(C)(O)c1cc(Nc2cc(Oc3cn(C4CC4)nc3C3CCOCC3)ccn2)ccn1  treatment-emergent adverse events (Vomiting; advanced cancer patients, dose escalation; oral, dose not given, 3 weeks on/1 off, all causality grade ≥3): 0%
CCCCCCCCCCCCCCCC(=O)N[C@@H](CCC(=O)NCCCC[C@H](NC(=O)[C@H](CC(=O)O)NC(=O)[C@H](CO)NC(=O)[C@@H](NC(=O)[C@H](Cc1ccccc1)NC(=O)[C@@H](NC(=O)CNC(=O)[C@H](CCC(N)=O)NC(=O)[C@H](CO)NC(=O)[C@@H](N)Cc1c[nH]cn1)[C@@H](C)O)[C@@H](C)O)C(=O)N[C@@H](CO)C(=O)N[C@@H](CCC(=O)O)C(=O)N[C@@H](Cc1ccc(O)cc1)C(=O)N[C@@H](CC(C)C)C(=O)N[C@@H](CC(=O)O)C(=O)N[C@@H](CO)C(=O)N[C@@H](CCC(=O)O)C(=O)N[C@@H](CCCNC(=N)N)C(=O)N[C@@H](C)C(=O)N[C@@H](CCCNC(=N)N)C(=O)N[C@@H](CC(=O)O)C(=O)N[C@@H](Cc1ccccc1)C(=O)N[C@H](C(=O)N[C@@H](C)C(=O)N[C@@H](Cc1c[nH]c2ccccc12)C(=O)N[C@@H](CC(C)C)C(=O)N[C@@H](CCC(=O)O)C(=O)N[C@@H](C)C(=O)NCC(=O)NCC(=O)O)C(C)C)C(=O)O  injection site erythema (human, CrCl ≥45 to <60 mL/min; sc, 100 µg single dose): 0%
O=S(=O)(Nc1ccccc1)c1ccc(NC(=S)Nc2ccccc2)cc1  blood cell fraction (item: RDW; female mouse, blood; oral, 20 mg/kg daily, 14 days): 16.6%
CC(=O)N1CCC(Nc2cc(C(=O)NC[C@H](O)CN3CCc4ccccc4C3)ncn2)CC1  deaths (patients with relapsed/refractory MDS, CMML or AML; oral, dose not given): 83%
CC[C@H](C)[C@H](NC(=O)[C@H](Cc1ccccc1)NC(=O)[C@H](CCC(=O)O)NC(=O)[C@H](CCCNC(=N)N)NC(=O)[C@H](C)NC(=O)[C@H](C)NC(=O)[C@H](CCC(N)=O)NC(=O)[C@H](CCC(=O)O)NC(=O)[C@H](CCC(=O)O)NC(=O)[C@H](CC(C)C)NC(=O)[C@H](Cc1ccc(O)cc1)NC(=O)[C@H](CO)NC(=O)[C@H](CO)NC(=O)[C@@H](NC(=O)[C@H](CC(=O)O)NC(=O)[C@H](CO)NC(=O)[C@@H](NC(=O)[C@H](Cc1ccccc1)NC(=O)[C@@H](NC(=O)CNC(=O)[C@H](CCC(=O)O)NC(=O)[C@H](C)NC(=O)CCc1cnc[nH]1)[C@@H](C)O)[C@@H](C)O)C(C)C)C(=O)N[C@@H](C)C(=O)N[C@@H](Cc1c[nH]c2ccccc12)C(=O)N[C@@H](CC(C)C)C(=O)N[C@H](C(=O)N[C@@H](CCCNC(=N)N)C(=O)NCC(=O)N[C@@H](CCCNC(=N)N)C(=O)N[C@@H](CCCCNC(=O)COCCOCCNC(=O)COCCOCCNC(=O)CC[C@H](NC(=O)CCCCCCCCCCCCCCCCC(=O)O)C(=O)O)C(=O)NCC(=O)NCC(=O)N[C@@H](CO)C(=O)N[C@@H](CCCCNC(=O)[C@H](CCCCNC(=O)[C@H](CCCCNc1c(NCCCCCN(O)C(=O)CCC(=O)NCCCCCN(O)C(=O)CCC(=O)NCCCCCN(O)C(C)=O)c(=O)c1=O)Nc1c(NCCCCCN(O)C(=O)CCC(=O)NCCCCCN(O)C(=O)CCC(=O)NCCCCCN(O)C(C)=O)c(=O)c1=O)NC(=O)[C@H](CCCCNc1c(NCCCCCN(O)C(=O)CCC(=O)NCCCCCN(O)C(=O)CCC(=O)NCCCCCN(O)C(C)=O)c(=O)c1=O)Nc1c(NCCCCCN(O)C(=O)CCC(=O)NCCCCCN(O)C(=O)CCC(=O)NCCCCCN(O)C(C)=O)c(=O)c1=O)C(=O)O)C(C)C [zirconium-89 labelled]  tissue uptake (ex vivo gamma counting; Sprague-Dawley rat, male, intestine; intravenous, 1 nmol, 24 h): 0.374 %ID/g and 0.436 %ID/g and 0.306 %ID/g and 0.302 %ID/g and 0.384 %ID/g
C[C@]1(c2nc3c(C(N)=O)cccc3[nH]2)CCCN1  MTD (human patients; with: topotecan): 10 mg twice daily
COc1ncccc1-c1cnn2ccc(N3CCN(C(=O)OC(C)C)CC3)nc12  drug concentration (rat, CCI mechanical allodynia model, plasma; oral, 30 mg/kg, 240 min): 4.8 µM

For quick reference, copied from above:
CC(C)n1c(C2CCNCC2)nc2c([N+](=O)[O-])c(Br)c(Br)cc21  adverse events causing discontinuation (item: Asthenia; AML patients; 125 mg): 2%
CCc1ccc(CC/C=C/c2ccc3c(c2)C(=O)CC3)cc1  Fibrinogen (Sprague-Dawley rat, female; oral, 30 mg/kg/day, 14 days): 2.63 g/L
COc1ccc(N=Nc2ccc3[nH]cc(CCNCc4cccc(OC)c4)c3c2)cc1  trans isomer fraction (HPLC; DMSO:PBS 1:1; pH 7.4, after 530 nm irradiation): 93%
C=CCNc1c(O)cc2c(O)c1C[C@@H](C)C[C@H](OC)[C@H](O)[C@@H](C)/C=C(\C)[C@H](OC(N)=O)[C@@H](OC)/C=C\C=C(/C)C(=O)N2  patients with nausea TEAE (unresectable or metastatic STS, GIST, other; intravenous, 150 mg/m^2): 67%
C[C@H]1CN(C(=O)CC#N)[C@]12CCN(c1ncnc3[nH]ccc13)C2  Cmax at NOAEL (dog, female; oral, 3 mg/kg repeated, 3 months): 2230 ng/mL
CN1CC[C@@H](c2c(O)cc(O)c3c(=O)cc(-c4ccc(C(F)(F)F)cc4Cl)oc23)[C@@H]1CO  patients with adverse event (item: Hypertension; B-cell malignancies; oral, 150 mg, intermittent dosing): 33.3%
